Assay results of several laboratories.
Values joined by “and” are separate records of one study, mostly repeats; a detail may differ. ± marks the error that the study gave.

Structure (SMILES) | tested on | test | system | conditions | scale | quantity | result
CC(C)(O)c1cc(Nc2cc(Oc3cn(C4CC4)nc3C3CCOCC3)ccn2)ccn1 |  | Constipation | patients with advanced cancer, grade 4 glioma expansion | oral, 50 mg twice daily, grade ≥3, 2 weeks on/2 weeks off schedule |  | treatment-related adverse events | 0%
C[C@]1(O)C[C@@](N)(c2ccc(-c3nc4n(c3-c3ccccc3)COc3ccncc3-4)cc2)C1 |  |  | human, advanced or metastatic solid tumours | once daily, dose escalation total, any grade |  | patients with Dyspnea TEAE | 11.1%
Cn1cncc1-c1c(F)cncc1NC(=O)c1c(N)nn2cc(F)cnc12 |  |  | human patients | oral, 270 mg once daily |  | grade ≥3 hyponatraemia incidence | 25%
CCN1[C@@H](C(=O)NC23CCC(C(=O)O)(CC2)CC3)[C@H](c2cccc(Cl)c2F)[C@]2(C(=O)Nc3cc(Cl)ccc32)C12CCCCC2 |  |  | patients with advanced solid tumours | oral, dose not given, all doses |  | any-grade neutropenia incidence | 38.1%
COc1ncnn2ccc(-c3cnc4nc(C)n(Cc5nnc([C@@H](C)F)o5)c4c3)c12 |  |  | human patients | oral, dose not given, grade 1 adverse drug reaction |  | incidence of Dehydration | 0%
CCCCCCCCCCCCCCCC(=O)N[C@@H](CCC(=O)NCCCC[C@H](NC(=O)[C@H](CC(=O)O)NC(=O)[C@H](CO)NC(=O)[C@@H](NC(=O)[C@H](Cc1ccccc1)NC(=O)[C@@H](NC(=O)CNC(=O)[C@H](CCC(N)=O)NC(=O)[C@H](CO)NC(=O)[C@@H](N)Cc1c[nH]cn1)[C@@H](C)O)[C@@H](C)O)C(=O)N[C@@H](CO)C(=O)N[C@@H](CCC(=O)O)C(=O)N[C@@H](Cc1ccc(O)cc1)C(=O)N[C@@H](CC(C)C)C(=O)N[C@@H](CC(=O)O)C(=O)N[C@@H](CO)C(=O)N[C@@H](CCC(=O)O)C(=O)N[C@@H](CCCNC(=N)N)C(=O)N[C@@H](C)C(=O)N[C@@H](CCCNC(=N)N)C(=O)N[C@@H](CC(=O)O)C(=O)N[C@@H](Cc1ccccc1)C(=O)N[C@H](C(=O)N[C@@H](C)C(=O)N[C@@H](Cc1c[nH]c2ccccc12)C(=O)N[C@@H](CC(C)C)C(=O)N[C@@H](CCC(=O)O)C(=O)N[C@@H](C)C(=O)NCC(=O)NCC(=O)O)C(C)C)C(=O)O |  |  | human, CrCl ≥30 to <45 mL/min | sc, 100 µg single dose |  | injection site erythema | 0%
CC(=O)c1c(C)c2cnc(Nc3ccc(C4CCN(CCS(C)(=O)=O)CC4)cn3)nc2n(C2CCCC2)c1=O |  |  | human, plasma | oral, 25 mg once daily, day 21, multiple doses |  | AUC(0-t) | 332 ng·h/mL
CC1(C)C(/C=C(\Cl)C(F)(F)F)C1C(=O)OC(C#N)c1cccc(Oc2ccccc2)c1 (stereo not drawn) |  | refers to: CYP3A5 | human, age 1 year |  |  | enzyme contribution to clearance | 0.05%
NCCCC[C@@H]1NC(=O)[C@@H](Cc2c[nH]c3ccccc23)NC(=O)[C@H](c2ccccc2)NC(=O)[C@@H]2C[C@@H](OC(=O)NCCN)CN2C(=O)[C@H](Cc2ccccc2)NC(=O)[C@H](Cc2ccc(OCc3ccccc3)cc2)NC1=O |  |  | healthy volunteers, female | 600 µg twice daily, 4.0 h, post hoc |  | placebo-corrected QTcF change | 4.2 ms
COc1cc2c(Oc3ccc4[nH]c(C)cc4c3F)ccnc2cc1OCC1(N)CC1 |  |  | paediatric recurrent refractory sarcoma | concentration not given, whole group |  | grade 3 Dizzy | 0%
COc1cc(C2C3=C(COC3=O)N(CCO)c3cc4c(cc32)CCC4)cc(OC)c1OC (stereo not drawn) |  |  | female C57BL/6 mice | intraperitoneal, 200 mg/kg, 24 h, single dose, mean |  | body weight | 21 g
COc1cccc(N=Nc2ccc3[nH]cc(CCN(C)C)c3c2)c1 |  | light irradiation | solution | added: light 530 nm |  | trans isomer at photostationary state | 85%
CCc1ccc(CC/C=C/c2ccc3c(c2)C(=O)CC3)cc1 |  |  | Sprague-Dawley rat, female | oral, 450 mg/kg/day, 14 days |  | ALT serum activity | 80.3 U/L
NC(=O)[C@H]1CCN(c2ncnc(N)c2F)C[C@@H]1N1CCC[C@@H](Nc2cc(Cl)cc(C(F)(F)F)c2)C1=O |  |  | B-cell malignancy patients | oral, 164 mg twice daily, dose |  | grade ≥3 thrombocytopenia | 0%
N#C/N=C1\SCCN1Cc1ccc(Cl)nc1 |  |  | soil | 56 days, nominal 0.12 |  | recovery | 0%
CC(C)C[C@H](NC(=O)[C@H](CCCCN)NC(=O)OCC1c2ccccc2-c2ccccc21)C(=O)N[C@H](C(=O)N[C@@H](Cc1ccccc1)C(=O)N[C@@H](Cc1ccccc1)C(=O)N[C@@H](CCCCN)C(=O)NCC(=O)N[C@@H](Cc1ccccc1)C(=O)N[C@@H](C)C(=O)N[C@@H](Cc1c[nH]c2ccccc12)C(=O)N[C@@H](CC(N)=O)C(=O)N[C@H](C(=O)N[C@H]1CSSC[C@@H](C(=O)N[C@@H](Cc2c[nH]cn2)C(=O)N[C@@H](CCCNC(=N)N)C(=O)N[C@@H](CCCNC(=N)N)C(=O)N[C@@H](C)C(=O)N[C@@H](CC(N)=O)C(N)=O)NC(=O)[C@H](C(C)C)NC(=O)[C@H](CCCNC(=N)N)NC(=O)[C@H](C(C)C)NC(=O)CNC(=O)[C@H](CC(N)=O)NC(=O)[C@H](CCCNC(=N)N)NC(=O)[C@H](Cc2ccc(O)cc2)NC(=O)[C@H](C(C)C)NC1=O)C(C)C)C(C)C |  |  | ICR mice, blood | intraductal mammary, 10 mg/kg, day 5 |  | mean platelet volume | 6.43 ± 0.09 fL
CC[C@H](C)[C@@H]1NC(=O)[C@@H]2CSSC[C@H](NC(=O)[C@H](CCCNC(=N)N)NC(=O)[C@@H]3CSSC[C@H](NC1=O)C(=O)N[C@@H]([C@@H](C)O)C(=O)N[C@@H](CCCNC(=N)N)C(=O)NCC(=O)N[C@@H](Cc1ccccc1)C(=O)N3)C(=O)N[C@@H](CC(C)C)C(=O)N[C@H]1CSSC[C@H](NC(=O)[C@H](C(C)C)NC(=O)CNC(=O)[C@H](CCCNC(=N)N)NC(=O)[C@H](CCCNC(=N)N)NC1=O)C(=O)N[C@@H](CCCNC(=N)N)C(=O)N2 |  |  | Sprague-Dawley rat, female, lung | 5 mg/kg, histopathology, multifocal | direction not given | alveolar macrophage aggregation score | 1 to 2
CC(C)n1c(C2CCNCC2)nc2c([N+](=O)[O-])c(Br)c(Br)cc21 |  | refers to: Pneumonia | AML patients | dose not given, all doses |  | related grade ≥3 adverse events | 1%
C[C@H]1CN(C(=O)CC#N)[C@]12CCN(c1ncnc3[nH]ccc13)C2 |  |  | dog, male | oral, 3 mg/kg repeated, 3 months |  | Cmax at NOAEL | 2280 ng/mL
CC(=O)N1CCC(Nc2cc(C(=O)NC[C@H](O)CN3CCc4ccccc4C3)ncn2)CC1 |  |  | relapsed or refractory MDS CMML AML | oral, 400 mg |  | deaths | 85%
O=C(c1ccc(F)c(F)c1Nc1ccc(I)cc1F)N1CC(O)([C@@H]2CCCCN2)C1 |  |  | human | oral, 0.6 mg/kg |  | duration of chorioretinopathy DLT | 50 days
COc1cccc(Oc2ccccc2NC(=O)CNC(=O)c2cccc3ccccc23)c1 |  |  | esterase-deficient SCID mice, male | oral, 15 mg/kg/day, 14 days, toxicity study |  | bicarbonate (total CO2) | 20 mmol/L and 19 mmol/L
COc1cccc(-c2ccccc2NC(=O)C2CCN(Cc3ccccc3F)CC2)c1 | Vero-E6 | CellTiter-Glo ATP |  | concentration not given, 72 h, retest 8-point duplicates | relative to: DMSO 0%, hyamine -100%, more negative, more toxic | cytotoxicity efficacy | 0%
CC[C@H](C)[C@H](NC(=O)[C@H](Cc1ccccc1)NC(=O)[C@H](CCC(=O)O)NC(=O)[C@H](CCCNC(=N)N)NC(=O)[C@H](C)NC(=O)[C@H](C)NC(=O)[C@H](CCC(N)=O)NC(=O)[C@H](CCC(=O)O)NC(=O)[C@H](CCC(=O)O)NC(=O)[C@H](CC(C)C)NC(=O)[C@H](Cc1ccc(O)cc1)NC(=O)[C@H](CO)NC(=O)[C@H](CO)NC(=O)[C@@H](NC(=O)[C@H](CC(=O)O)NC(=O)[C@H](CO)NC(=O)[C@@H](NC(=O)[C@H](Cc1ccccc1)NC(=O)[C@@H](NC(=O)CNC(=O)[C@H](CCC(=O)O)NC(=O)[C@H](C)NC(=O)CCc1cnc[nH]1)[C@@H](C)O)[C@@H](C)O)C(C)C)C(=O)N[C@@H](C)C(=O)N[C@@H](Cc1c[nH]c2ccccc12)C(=O)N[C@@H](CC(C)C)C(=O)N[C@H](C(=O)N[C@@H](CCCNC(=N)N)C(=O)NCC(=O)N[C@@H](CCCNC(=N)N)C(=O)N[C@@H](CCCCNC(=O)COCCOCCNC(=O)COCCOCCNC(=O)CC[C@H](NC(=O)CCCCCCCCCCCCCCCCC(=O)O)C(=O)O)C(=O)NCC(=O)NCC(=O)N[C@@H](CO)C(=O)N[C@@H](CCCCNC(=O)[C@H](CCCCNC(=O)[C@H](CCCCNc1c(NCCCCCN(O)C(=O)CCC(=O)NCCCCCN(O)C(=O)CCC(=O)NCCCCCN(O)C(C)=O)c(=O)c1=O)Nc1c(NCCCCCN(O)C(=O)CCC(=O)NCCCCCN(O)C(=O)CCC(=O)NCCCCCN(O)C(C)=O)c(=O)c1=O)NC(=O)[C@H](CCCCNc1c(NCCCCCN(O)C(=O)CCC(=O)NCCCCCN(O)C(=O)CCC(=O)NCCCCCN(O)C(C)=O)c(=O)c1=O)Nc1c(NCCCCCN(O)C(=O)CCC(=O)NCCCCCN(O)C(=O)CCC(=O)NCCCCCN(O)C(C)=O)c(=O)c1=O)C(=O)O)C(C)C [zirconium-89 labelled] |  | ex vivo gamma counting | Sprague-Dawley rat, male, colon | intravenous, 1 nmol, 24 h |  | tissue uptake | 0.381 %ID/g and 0.36 %ID/g and 0.449 %ID/g and 0.317 %ID/g and 0.389 %ID/g
CN1CC[C@@H](c2c(O)cc(O)c3c(=O)cc(-c4ccc(C(F)(F)F)cc4Cl)oc23)[C@@H]1CO |  | refers to: respiratory failure | B-cell malignancies | oral, 150 mg, grade 3 to 4, intermittent dosing |  | patients with adverse event | 0%
O=C(Nc1ccccc1)C1CCN(C(=O)Oc2cccnc2)CC1 |  |  | healthy women | oral, 100 mg, 9 days |  | adverse event Somnolence | 15.4%
CC(C)[C@@H]1NC(=O)CNC(=O)[C@H](CC(N)=O)NC(=O)[C@H](CCCNC(=N)N)NC(=O)[C@H](Cc2ccc(O)cc2)NC(=O)[C@H](C(C)C)NC(=O)[C@@H](NC(=O)[C@@H](NC(=O)[C@H](CC(N)=O)NC(=O)[C@H](Cc2c[nH]c3ccccc23)NC(=O)[C@H](C)NC(=O)[C@H](Cc2ccccc2)NC(=O)CN)C(C)C)CSSC[C@@H](C(=O)N[C@@H](Cc2cnc[nH]2)C(=O)N[C@@H](CCCNC(=N)N)C(=O)N[C@@H](CCCNC(=N)N)C(=O)N[C@@H](C)C(=O)N[C@@H](CC(N)=O)C(N)=O)NC(=O)[C@H](C(C)C)NC(=O)[C@H](CCCNC(=N)N)NC1=O |  |  | ICR mouse, blood | intramammary, 5 mg/kg, day 5, 3 d dosing |  | calcium | 1.37 ± 0.02 mmol/L
COc1ccc([C@@H]2CC(=O)c3c(O)cc(O)cc3O2)cc1O |  |  | male Sprague-Dawley rat, obese | oral, 100 mg/kg of neohesperidin, 0 to 12 h |  | faecal excreted amount | 489 ± 324 ng
N=C(N)NCCC[C@@H](NC(=O)[C@@H](N)Cc1ccccc1)C(=O)N[C@@H](Cc1ccccc1)C(=O)N[C@@H](CCCCN)C(N)=O |  | LC-MS | human | 5 mg, 11.83 h |  | median fraction excreted in urine | 5.47%
COC[C@]12CN(C)[C@@H]3[C@@H]4[C@H](OC)[C@H]1[C@@]3([C@@H](OC)C[C@H]2O)[C@@H]1C[C@@]2(O)[C@H](OC(=O)c3ccccc3)[C@@H]1[C@]4(OC(C)=O)[C@@H](O)[C@@H]2OC |  |  | Sprague-Dawley rat, plasma | oral, dose not given, with NADES in PCW extract |  | half-life | 4.01 ± 0.337 h

Some of these lines once more:
Structure (SMILES) | tested on | test | system | conditions | scale | quantity | result
COc1cc(C2C3=C(COC3=O)N(CCO)c3cc4c(cc32)CCC4)cc(OC)c1OC (stereo not drawn) |  |  | female C57BL/6 mice | intraperitoneal, 200 mg/kg, 24 h, single dose, mean |  | body weight | 21 g
O=C(Nc1ccccc1)C1CCN(C(=O)Oc2cccnc2)CC1 |  |  | healthy women | oral, 100 mg, 9 days |  | adverse event Somnolence | 15.4%
Cn1cncc1-c1c(F)cncc1NC(=O)c1c(N)nn2cc(F)cnc12 |  |  | human patients | oral, 270 mg once daily |  | grade ≥3 hyponatraemia incidence | 25%
